Assay results from different studies.
Lines come from different studies, so protocols differ. Changes are numbered by the printed parent chain. ± gives the spread as reported.
TDG: TDG 1-410 (Homo sapiens, UniProt Q13569)
UniProt Q13569, sequence (whole entry, looked up): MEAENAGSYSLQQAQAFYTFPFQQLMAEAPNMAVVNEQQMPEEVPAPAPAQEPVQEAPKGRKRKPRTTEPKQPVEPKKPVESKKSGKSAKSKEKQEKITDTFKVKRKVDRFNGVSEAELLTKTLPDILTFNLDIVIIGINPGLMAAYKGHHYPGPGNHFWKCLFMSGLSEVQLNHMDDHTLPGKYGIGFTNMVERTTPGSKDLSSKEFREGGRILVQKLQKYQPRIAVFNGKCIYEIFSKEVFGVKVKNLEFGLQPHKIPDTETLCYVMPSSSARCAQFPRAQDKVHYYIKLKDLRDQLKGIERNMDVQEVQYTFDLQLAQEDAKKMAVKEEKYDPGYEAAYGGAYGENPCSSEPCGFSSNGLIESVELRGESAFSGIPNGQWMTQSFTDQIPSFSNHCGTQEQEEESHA
DNMT1: DNMT1 1-1616 (Homo sapiens, UniProt P26358)
UniProt P26358, sequence (whole entry, looked up): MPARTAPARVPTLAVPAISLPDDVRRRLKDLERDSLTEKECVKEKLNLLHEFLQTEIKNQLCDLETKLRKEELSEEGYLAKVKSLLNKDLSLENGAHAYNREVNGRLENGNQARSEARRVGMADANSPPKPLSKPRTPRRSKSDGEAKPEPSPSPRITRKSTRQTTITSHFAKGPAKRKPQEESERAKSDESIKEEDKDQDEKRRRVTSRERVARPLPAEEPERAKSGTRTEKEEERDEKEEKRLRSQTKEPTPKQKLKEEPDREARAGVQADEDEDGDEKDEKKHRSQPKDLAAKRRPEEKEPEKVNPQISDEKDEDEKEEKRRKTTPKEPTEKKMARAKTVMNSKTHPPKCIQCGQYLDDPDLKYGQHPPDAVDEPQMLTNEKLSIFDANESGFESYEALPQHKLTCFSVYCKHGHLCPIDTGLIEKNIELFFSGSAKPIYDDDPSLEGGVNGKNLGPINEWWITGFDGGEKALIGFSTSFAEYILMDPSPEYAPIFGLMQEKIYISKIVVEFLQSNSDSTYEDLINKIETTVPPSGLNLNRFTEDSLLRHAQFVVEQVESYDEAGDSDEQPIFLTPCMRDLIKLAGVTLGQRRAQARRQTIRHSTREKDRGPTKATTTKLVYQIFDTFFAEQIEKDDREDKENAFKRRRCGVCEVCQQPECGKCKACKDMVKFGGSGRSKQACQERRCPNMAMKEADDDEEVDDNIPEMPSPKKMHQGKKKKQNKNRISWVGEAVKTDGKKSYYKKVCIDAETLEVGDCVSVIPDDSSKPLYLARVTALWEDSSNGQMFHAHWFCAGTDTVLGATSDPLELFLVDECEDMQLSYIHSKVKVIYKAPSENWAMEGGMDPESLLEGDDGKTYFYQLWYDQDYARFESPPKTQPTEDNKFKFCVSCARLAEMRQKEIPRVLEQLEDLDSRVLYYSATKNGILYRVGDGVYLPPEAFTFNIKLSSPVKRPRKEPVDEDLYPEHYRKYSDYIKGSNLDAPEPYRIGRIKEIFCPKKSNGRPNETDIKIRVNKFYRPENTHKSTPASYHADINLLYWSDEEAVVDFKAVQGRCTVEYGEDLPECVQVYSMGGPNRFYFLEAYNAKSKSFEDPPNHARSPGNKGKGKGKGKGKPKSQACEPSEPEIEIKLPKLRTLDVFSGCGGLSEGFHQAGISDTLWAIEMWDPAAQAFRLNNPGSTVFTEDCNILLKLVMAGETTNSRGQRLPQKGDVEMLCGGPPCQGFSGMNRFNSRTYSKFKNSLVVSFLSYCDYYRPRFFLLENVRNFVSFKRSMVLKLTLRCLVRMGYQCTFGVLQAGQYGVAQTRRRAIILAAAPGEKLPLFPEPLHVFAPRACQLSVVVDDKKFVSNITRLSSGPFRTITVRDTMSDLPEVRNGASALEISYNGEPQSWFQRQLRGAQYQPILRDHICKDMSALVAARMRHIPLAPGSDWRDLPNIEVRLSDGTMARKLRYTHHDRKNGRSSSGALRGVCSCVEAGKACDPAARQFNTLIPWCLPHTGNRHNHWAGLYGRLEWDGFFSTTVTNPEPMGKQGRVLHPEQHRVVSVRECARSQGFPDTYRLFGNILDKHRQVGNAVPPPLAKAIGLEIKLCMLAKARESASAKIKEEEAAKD
SPC42 residues 1-134: SPC42 fragment (Saccharomyces cerevisiae)
gabR full length assumed: gabR full length assumed (Bacillus subtilis, UniProt P94426)
UniProt P94426, sequence (whole entry, looked up): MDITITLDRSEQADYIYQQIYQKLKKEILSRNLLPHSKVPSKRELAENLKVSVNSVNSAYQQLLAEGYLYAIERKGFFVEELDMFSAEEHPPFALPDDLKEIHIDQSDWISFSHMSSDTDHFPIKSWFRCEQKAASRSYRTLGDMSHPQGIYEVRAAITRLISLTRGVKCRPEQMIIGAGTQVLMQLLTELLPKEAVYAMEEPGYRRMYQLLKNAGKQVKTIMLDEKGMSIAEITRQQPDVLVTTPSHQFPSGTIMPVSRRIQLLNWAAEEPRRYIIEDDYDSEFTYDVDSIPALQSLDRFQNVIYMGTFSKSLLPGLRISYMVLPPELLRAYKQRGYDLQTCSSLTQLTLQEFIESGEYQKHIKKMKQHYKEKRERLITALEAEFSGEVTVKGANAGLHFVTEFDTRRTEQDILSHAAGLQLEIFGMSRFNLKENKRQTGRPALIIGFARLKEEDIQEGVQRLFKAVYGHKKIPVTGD
P1: SNF1 residues 54-391 (Saccharomyces cerevisiae); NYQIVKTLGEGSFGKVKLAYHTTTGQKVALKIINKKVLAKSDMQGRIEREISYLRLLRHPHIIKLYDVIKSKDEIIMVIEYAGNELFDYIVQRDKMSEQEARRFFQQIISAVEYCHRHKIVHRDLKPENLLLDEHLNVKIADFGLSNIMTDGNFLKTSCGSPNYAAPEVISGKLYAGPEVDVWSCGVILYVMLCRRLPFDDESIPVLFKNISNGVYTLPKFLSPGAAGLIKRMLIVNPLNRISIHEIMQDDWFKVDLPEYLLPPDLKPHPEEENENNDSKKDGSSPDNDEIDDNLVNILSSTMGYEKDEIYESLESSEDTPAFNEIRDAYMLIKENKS
P2: ALIS5 (Arabidopsis thaliana); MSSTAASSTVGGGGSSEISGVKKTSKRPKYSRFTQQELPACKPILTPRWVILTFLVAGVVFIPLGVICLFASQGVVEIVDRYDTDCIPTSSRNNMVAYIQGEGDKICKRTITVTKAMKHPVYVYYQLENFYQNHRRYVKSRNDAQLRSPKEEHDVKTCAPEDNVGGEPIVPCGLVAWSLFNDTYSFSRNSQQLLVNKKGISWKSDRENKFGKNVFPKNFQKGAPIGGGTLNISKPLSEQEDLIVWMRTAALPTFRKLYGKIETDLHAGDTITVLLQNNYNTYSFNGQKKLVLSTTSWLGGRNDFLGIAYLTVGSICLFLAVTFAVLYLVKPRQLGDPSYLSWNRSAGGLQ
P3: SFI1 residues 1-296 (Saccharomyces cerevisiae); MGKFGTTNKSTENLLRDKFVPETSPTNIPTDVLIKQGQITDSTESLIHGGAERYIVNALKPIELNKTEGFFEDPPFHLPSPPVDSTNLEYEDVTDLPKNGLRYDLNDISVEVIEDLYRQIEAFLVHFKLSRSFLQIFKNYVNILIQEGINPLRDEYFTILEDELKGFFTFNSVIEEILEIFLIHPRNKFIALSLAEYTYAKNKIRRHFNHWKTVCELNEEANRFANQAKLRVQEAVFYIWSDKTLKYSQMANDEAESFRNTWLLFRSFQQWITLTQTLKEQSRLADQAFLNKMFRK
P4: APOBEC3G/EYFP (Homo sapiens); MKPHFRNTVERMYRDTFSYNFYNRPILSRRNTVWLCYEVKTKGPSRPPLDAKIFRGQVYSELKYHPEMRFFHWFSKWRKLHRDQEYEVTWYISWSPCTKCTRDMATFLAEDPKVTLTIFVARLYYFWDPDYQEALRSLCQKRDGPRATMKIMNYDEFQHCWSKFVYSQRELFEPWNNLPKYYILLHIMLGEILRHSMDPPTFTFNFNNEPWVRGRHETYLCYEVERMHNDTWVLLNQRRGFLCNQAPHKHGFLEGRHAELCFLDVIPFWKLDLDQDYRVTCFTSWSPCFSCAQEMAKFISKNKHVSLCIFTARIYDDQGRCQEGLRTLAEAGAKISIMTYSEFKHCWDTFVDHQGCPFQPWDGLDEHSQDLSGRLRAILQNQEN
P5: FAS/IgG1 Fc extracellular domain with hinge; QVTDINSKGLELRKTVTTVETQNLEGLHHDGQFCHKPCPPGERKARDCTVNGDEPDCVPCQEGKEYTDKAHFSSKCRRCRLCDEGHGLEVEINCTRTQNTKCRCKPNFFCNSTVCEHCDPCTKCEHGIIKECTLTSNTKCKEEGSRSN; partner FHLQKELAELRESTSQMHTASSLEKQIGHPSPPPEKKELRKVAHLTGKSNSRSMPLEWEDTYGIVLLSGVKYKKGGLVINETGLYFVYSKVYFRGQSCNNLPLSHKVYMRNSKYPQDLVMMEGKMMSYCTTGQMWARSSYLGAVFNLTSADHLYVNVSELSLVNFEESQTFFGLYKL
UniProt P0AE01, sequence (whole entry, looked up): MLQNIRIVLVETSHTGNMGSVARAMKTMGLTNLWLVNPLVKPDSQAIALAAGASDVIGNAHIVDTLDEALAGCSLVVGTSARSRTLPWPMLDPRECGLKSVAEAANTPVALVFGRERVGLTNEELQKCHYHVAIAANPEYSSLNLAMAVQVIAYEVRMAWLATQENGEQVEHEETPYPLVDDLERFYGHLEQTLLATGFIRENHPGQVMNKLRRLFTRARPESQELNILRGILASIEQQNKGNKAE
UniProt A8T666, sequence (whole entry, looked up): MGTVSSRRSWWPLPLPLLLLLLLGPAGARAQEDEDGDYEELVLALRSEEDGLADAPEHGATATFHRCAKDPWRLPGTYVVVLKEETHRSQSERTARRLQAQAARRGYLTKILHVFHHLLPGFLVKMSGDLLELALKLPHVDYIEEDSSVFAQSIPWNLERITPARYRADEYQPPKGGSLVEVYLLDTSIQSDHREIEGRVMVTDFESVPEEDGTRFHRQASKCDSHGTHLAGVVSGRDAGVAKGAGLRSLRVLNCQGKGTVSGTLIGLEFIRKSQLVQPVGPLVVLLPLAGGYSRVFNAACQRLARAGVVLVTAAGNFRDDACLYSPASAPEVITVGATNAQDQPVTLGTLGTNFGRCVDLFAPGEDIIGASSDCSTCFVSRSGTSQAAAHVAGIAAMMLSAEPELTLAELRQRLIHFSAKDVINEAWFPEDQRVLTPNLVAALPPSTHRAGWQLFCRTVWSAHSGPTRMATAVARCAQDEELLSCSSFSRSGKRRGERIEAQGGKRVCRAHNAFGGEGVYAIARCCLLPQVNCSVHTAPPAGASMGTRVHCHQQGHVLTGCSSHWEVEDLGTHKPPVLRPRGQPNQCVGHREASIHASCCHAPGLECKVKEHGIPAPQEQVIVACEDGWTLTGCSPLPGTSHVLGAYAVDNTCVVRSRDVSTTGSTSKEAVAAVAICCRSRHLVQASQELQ
UniProt P0A9X9, sequence (whole entry, looked up): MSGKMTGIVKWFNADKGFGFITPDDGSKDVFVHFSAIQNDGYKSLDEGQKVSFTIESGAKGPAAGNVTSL
UniProt Q9NR56, sequence (whole entry, looked up): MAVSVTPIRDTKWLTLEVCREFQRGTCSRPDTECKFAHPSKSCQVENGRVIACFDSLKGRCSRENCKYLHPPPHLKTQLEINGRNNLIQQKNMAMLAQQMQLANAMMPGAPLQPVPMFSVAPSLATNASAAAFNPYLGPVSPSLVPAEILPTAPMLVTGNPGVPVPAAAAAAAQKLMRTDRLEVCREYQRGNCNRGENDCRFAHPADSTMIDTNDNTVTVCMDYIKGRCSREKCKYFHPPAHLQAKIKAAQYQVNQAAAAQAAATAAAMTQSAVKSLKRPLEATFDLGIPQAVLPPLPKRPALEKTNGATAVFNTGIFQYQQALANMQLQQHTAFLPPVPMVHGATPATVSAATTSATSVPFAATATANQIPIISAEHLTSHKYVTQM
UniProt Q8IUH3, sequence (whole entry, looked up): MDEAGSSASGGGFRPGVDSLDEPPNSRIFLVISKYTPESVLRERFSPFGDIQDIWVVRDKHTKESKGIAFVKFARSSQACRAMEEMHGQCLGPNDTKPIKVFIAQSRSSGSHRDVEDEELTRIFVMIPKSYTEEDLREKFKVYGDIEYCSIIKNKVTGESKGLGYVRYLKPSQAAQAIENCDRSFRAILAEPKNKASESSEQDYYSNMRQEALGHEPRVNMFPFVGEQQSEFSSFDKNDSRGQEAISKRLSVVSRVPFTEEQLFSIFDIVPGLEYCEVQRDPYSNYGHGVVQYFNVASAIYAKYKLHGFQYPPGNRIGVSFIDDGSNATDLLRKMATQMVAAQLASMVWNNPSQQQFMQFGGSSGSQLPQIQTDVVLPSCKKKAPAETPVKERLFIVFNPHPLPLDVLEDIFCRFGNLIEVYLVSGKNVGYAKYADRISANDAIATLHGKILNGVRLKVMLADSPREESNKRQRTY
UniProt P0C835, sequence (whole entry, looked up): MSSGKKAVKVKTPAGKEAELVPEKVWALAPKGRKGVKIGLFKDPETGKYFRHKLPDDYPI

Substance = P1 T157A; tested on = GAL4 BD/SNF1 residues 1-53 (Saccharomyces cerevisiae); test = yeast two-hybrid; setting = read off a plot; how to read = reference: NTD/CTD on glucose, higher = stronger interaction; quantity = relative interaction; value = 2%
Substance = UUCUUCUGUGGACUGUG (ssRNA); tested on = RBM45 1-476 (Homo sapiens, UniProt Q8IUH3); test = fluorescence polarization; test system = RNA; quantity = Kd; value = 1370 ± 212 nM
Substance = DNA 1 TCATGTACAGAGCTG / DNA 2 CAGCTCTGTACGTGA (dsDNA; 2'-F-arabino-T mispaired with G, CpG); tested on = TDG; test = fluorescence anisotropy; test system = double-stranded DNA; quantity = Kd; value = 124 ± 25 nM
Substance = CGGGCGGGCGCGAGGGAGGGG (G-quadruplex DNA; G4); tested on = DNMT1; test = ELISA; test system = folded DNA; setting = K+ 100 mM; quantity = Kd; value = 15.2 ± 0.4 nM
Substance = CGCGGGGUGGAGCAGCCUGGUAGCUCGUCGGGCUCAUAACCCGAAGAUCGUCGGUUCAAAUCCGGCCCCCGCAACCA (tRNA (Escherichia coli); cloverleaf, unmodified); tested on = trmJ 171-246 (Escherichia coli, UniProt P0AE01); test = EMSA; test system = folded RNA; setting = Mg2+ 5 mM, added: sinefungin 500 µM; quantity = binding; value = no binding
Substance = P2 N181Q; tested on = ALA2 (Arabidopsis thaliana); test = pull-down; test system = yeast membranes; setting = read off a plot; how to read = reference: unchanged protein, higher = more binding; quantity = relative binding; value = 0.09
Substance = CCUGUCUCGCUUUUCCCCUCCGCUGCGGCCAC (ssRNA (Homo sapiens); hairpin); tested on = MBNL1 173-255 (Homo sapiens, UniProt Q9NR56); test = NMR titration; test system = folded RNA; quantity = binding; value = binds
Substance = P3 S10D T11D S42D T43D S45D; tested on = SPC42 residues 1-134; test = yeast two-hybrid; setting = read off a plot, added: Cdc31; how to read = reference: unchanged protein, higher = stronger interaction; quantity = relative interaction; value = 0.3
Substance = CTTCTGATACCATCAAAAAGTTATAATTGGTACTTGACATCATACCAAAGAGAAGTCAGAATGATAAGAAAATACCG (dsDNA (Bacillus subtilis)); tested on = gabR full length assumed; test = BLI; test system = double-stranded DNA, one strand shown; quantity = Kd; value = 114 ± 23 nM
Substance = P4 Y124A; tested on = APOBEC3G Renilla luciferase fusion (Homo sapiens); test = BRET; test system = 293T; setting = read off a plot; how to read = reference: unchanged protein, higher = more binding; quantity = relative binding; value = 0.3
Substance = P3 S10D T11D S42D; tested on = SPC42 residues 1-134; test = yeast two-hybrid; setting = read off a plot, added: Cdc31; how to read = reference: unchanged protein, higher = stronger interaction; quantity = relative interaction; value = 0.57
Substance = P4 F126A; tested on = APOBEC3G Renilla luciferase fusion (Homo sapiens); test = BRET; test system = 293T; setting = read off a plot; how to read = reference: unchanged protein, higher = more binding; quantity = relative binding; value = 0.24
Substance = P5 H117S; tested on = FASLG/CD8 fusion (Homo sapiens); test = SPR; setting = end of injection, read off a plot; how to read = higher = more binding; quantity = binding response; value = 58 RU
Substance = GTGTCACCACTGCTCACGTACAGAGCTG (dsDNA; fully paired duplex); tested on = TDG; test = fluorescence anisotropy; test system = double-stranded DNA, one strand shown; quantity = Kd; value = 63 ± 10 nM
Substance = TGAGGGTGGGTAGGGTGGGTAA (G-quadruplex DNA; G4); tested on = DNMT1; test = ELISA; test system = folded DNA; setting = K+ 100 mM; quantity = Kd; value = 25.3 ± 0.4 nM
Substance = CTTCTGATACCATAAAAAAGTTTTAATTGGAACTTTTAATCATACCAAAGAGAAGTCAGAATGATAAGAAAATACCG (dsDNA (Bacillus subtilis)); tested on = gabR full length assumed; test = BLI; test system = double-stranded DNA, one strand shown; quantity = Kd; value = 101 ± 16 nM
Substance = AACGUACUUUAAGGCCUAUUGAGGAAACUC (ssDNA; all dC Pp-dC; all dU Nap-dU); tested on = PCSK9 31-692 (Macaca mulatta, UniProt A8T666); test = filter binding; quantity = Kd; value = 0.0113 nM
Substance = CTTCTGATACCATCAAAAAGTTCGAATTGGTACTTTTCATCATACCAAAGAGAAGTCAGAATGATAAGAAAATACCG (dsDNA (Bacillus subtilis)); tested on = gabR full length assumed; test = BLI; test system = double-stranded DNA, one strand shown; quantity = Kd; value = 24.6 ± 11.9 nM
Substance = GGUCUGUUUCCAGACCUCC (ssRNA; hairpin); tested on = cspA full length assumed (Escherichia coli, UniProt P0A9X9); test = NMR chemical shift titration; test system = folded RNA; setting = 20 °C; quantity = Kd; value = 12000 ± 2000 nM
Substance = CTTCTGATACCATCATATAGTTATATAAGGTACTTATCATCATACCAAAGAGAAGTCAGAATGATAAGAAAATACCG (dsDNA (Bacillus subtilis)); tested on = gabR full length assumed; test = BLI; test system = double-stranded DNA, one strand shown; quantity = Kd; value = 1160 ± 650 nM
Substance = GATCCCCCAATGCTTCGTTTCGTATCACACACCCCAAAGCCTTCTGCTTTGAATGCTGCC (dsDNA; 60 bp duplex); tested on = cren7 2-60 (Saccharolobus shibatae, UniProt P0C835); test = EMSA; test system = double-stranded DNA, one strand shown; setting = apparent; quantity = Kd; value = 113 nM

For quick reference, copied from above:
Substance = CGCGGGGUGGAGCAGCCUGGUAGCUCGUCGGGCUCAUAACCCGAAGAUCGUCGGUUCAAAUCCGGCCCCCGCAACCA (tRNA (Escherichia coli); cloverleaf, unmodified); tested on = trmJ 171-246 (Escherichia coli, UniProt P0AE01); test = EMSA; test system = folded RNA; setting = Mg2+ 5 mM, added: sinefungin 500 µM; quantity = binding; value = no binding
Substance = CTTCTGATACCATAAAAAAGTTTTAATTGGAACTTTTAATCATACCAAAGAGAAGTCAGAATGATAAGAAAATACCG (dsDNA (Bacillus subtilis)); tested on = gabR full length assumed; test = BLI; test system = double-stranded DNA, one strand shown; quantity = Kd; value = 101 ± 16 nM
Substance = P3 S10D T11D S42D T43D S45D; tested on = SPC42 residues 1-134; test = yeast two-hybrid; setting = read off a plot, added: Cdc31; how to read = reference: unchanged protein, higher = stronger interaction; quantity = relative interaction; value = 0.3
